Measured values pooled from the literature.
Each numbered part is a random draw from the data of one study; scales do not carry over between parts. Changes are numbered by the printed parent chain.

Study 1
Target: ABI1, truncated, D143A, DHFR fusion (Arabidopsis thaliana)
Technique: DHFR PCA, deep sequencing
Sample: yeast
Setting: methotrexate growth selection, single substitutions
Together with: (+)-ABA 0.032 µM
Relative to: wild-type fitted maximum
Direction: higher = stronger binding
Starting sequence: PYL1, truncated, DHFR fusion (Arabidopsis thaliana); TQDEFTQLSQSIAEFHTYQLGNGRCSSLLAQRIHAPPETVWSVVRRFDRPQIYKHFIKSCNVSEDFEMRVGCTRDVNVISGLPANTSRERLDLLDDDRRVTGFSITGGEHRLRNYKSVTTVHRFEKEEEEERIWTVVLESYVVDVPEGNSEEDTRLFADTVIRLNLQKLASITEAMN; partner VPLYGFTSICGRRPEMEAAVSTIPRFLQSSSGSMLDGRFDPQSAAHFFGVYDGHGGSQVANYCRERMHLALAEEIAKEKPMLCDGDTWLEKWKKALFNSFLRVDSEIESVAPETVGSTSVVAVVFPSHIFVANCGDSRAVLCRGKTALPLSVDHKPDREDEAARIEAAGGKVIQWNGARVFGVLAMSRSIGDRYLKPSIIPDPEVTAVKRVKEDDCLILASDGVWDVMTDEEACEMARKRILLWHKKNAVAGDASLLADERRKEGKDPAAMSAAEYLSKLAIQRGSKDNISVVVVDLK
Variant | relative binding score [%]
T6Y | 30.2
T120N | 0.611
I172R | -1.26
E127R | 35.2
G23Q | 8.59
E174H | -6.8
G71H | 1.81
A30R | 4.89
I33C | 1.58
T160I | -3.84
R111S | 5.59
E67H | 9.73
H122I | 0.295
T73M | 36.3
L164M | 18.4
F5Q | 7.6
A13C | 1.39

Study 2
Target: Fragile X messenger ribonucleoprotein 1, C-terminal low-complexity region (Fmr1, Mus musculus, UniProt P35922)
Technique: RNA Bind-n-Seq
Molecule type: RNA
Sample: in vitro
Concentration: 200 nM
Setting: whole 134-nt RNA, ends assumed
Together with: 150 mM KCl
Relative to: input library
Direction: higher = stronger binding
Oligonucleotide | log2 enrichment
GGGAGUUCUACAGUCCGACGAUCUUUGCUUGCAGUAUCUGUUUCUCUUCCUAGGCUCAAGUUGGUGACCCAAGCCUAUUGUAAACAAGUGAUUAUCUCAAAGGGAGAUGCCAAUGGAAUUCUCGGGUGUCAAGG | -0.398
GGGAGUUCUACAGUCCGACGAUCCAAGUCCUGUGCUACACAUCGUAUGUACCGAAUCGGGUGGGUUUUUUUGGGAGGGAAAGUAUUAUGUUACGCCGUUCGGAUCUGCACUUCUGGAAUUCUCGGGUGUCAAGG | 0.727
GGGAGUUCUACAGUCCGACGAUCUCAAGUCCUGUGCUACACAUCGUAUGUACCGAAUCGGGAAAAAGGGUGGGAGGGAAAGUAUUAUGUUACGCCGUUCGGAUCUGCACUUCCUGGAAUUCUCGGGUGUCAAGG | 1.13
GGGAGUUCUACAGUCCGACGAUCUCCUGUGCUACACAUCGUAUGUACCGAAUCGGGGUUUUUGGGGAAAGGGGUUUUUGGGGAAAGUAUUAUGUUACGCCGUUCGGAUCUGCAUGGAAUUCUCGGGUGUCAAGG | 0.82
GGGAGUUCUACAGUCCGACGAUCACCAUGCAGGUGGGCAUCUUUGGGAAGUGGGGCAAGGGGGGGAUAGGGAGGGGGGUAACACUUUGGGAACAGGUGGUCCCAGGUCGAAACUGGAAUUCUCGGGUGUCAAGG | 0.66
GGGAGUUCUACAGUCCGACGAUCCACAGACAACACGCACCCACACAGACACAGAGGGAAGGGGUUGGGAUGGGGACAGGGUGCACAGCAGGGCGGGAUAGGACCCCAGCCCCUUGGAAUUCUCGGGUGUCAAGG | 1.3
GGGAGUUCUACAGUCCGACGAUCUCCUGUGCUACACAUCGUAUGUACCGAAUCGGGGUUUUUGGGGUUUUUGGGGAAAGGGGAAAGUAUUAUGUUACGCCGUUCGGAUCUGCAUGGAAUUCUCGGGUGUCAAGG | 0.888
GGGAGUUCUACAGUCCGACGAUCUCCUCAAGUCCUGUGCUACACAUCGUAUGUACCGAAUCGGAGGGAGGGAGGGAAAGUAUUAUGUUACGCCGUUCGGAUCUGCACUUCCAGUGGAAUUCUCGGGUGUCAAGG | 1.34
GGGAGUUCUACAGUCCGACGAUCUCCUCAAGUCCUGUGCUACACAUCGUAUGUACCGAAUCGGGGAGGAGGAGGAAAGUAUUAUGUUACGCCGUUCGGAUCUGCACUUCCAGCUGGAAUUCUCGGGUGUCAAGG | -0.266
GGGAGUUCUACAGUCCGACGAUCCAAGUCCUGUGCUACACAUCGUAUGUACCGAAUCGGUUUGGAAAAAAAGGUUUGGAAAGUAUUAUGUUACGCCGUUCGGAUCUGCACUUCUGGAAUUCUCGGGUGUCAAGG | -1.04
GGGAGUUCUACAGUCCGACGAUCUCCUUCCUUUUUUUGUCUUAAACAUAGGACAUGGAUUUGAUUGACAUACUUUGGAGGCAAGAUAUAGAUCUUGGAGUAAGUCGAGAAGUAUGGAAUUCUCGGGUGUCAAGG | -0.282
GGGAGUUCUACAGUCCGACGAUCUAACUUUAGAGGAGGAUCUGAUGGAUAUGGCAGUGGACGUGGAUUUGGGGAUGGCUAUAAUGGGUAUGGAGGAGGACCUGGCGGUGGCAAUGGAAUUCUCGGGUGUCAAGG | 0.0823
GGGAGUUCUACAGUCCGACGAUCUGGCCCUGGUGGCAGGCGGGGAGGAAGAGGUGGCCUCAUGGAUCGUGGUGGUCCCGGUGGAAUGUUCAGAGGUGGCCGUGGUGGAGACAGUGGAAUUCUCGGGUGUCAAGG | 0.433
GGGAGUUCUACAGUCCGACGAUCUGAUGGGACAACACCCGAAAGGAUAGCACAAAUAACAGGACCUCCAGACCGAUGUCAACAUGCUGCAGAAAUUAUUACAGACCUUCUUCGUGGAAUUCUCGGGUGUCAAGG | 0.312

Study 3
Target: RING finger protein unkempt homolog, zinc fingers 1-6, SBP tag (UNK, Homo sapiens, UniProt Q9C0B0, residues 30-357)
UniProt Q9C0B0, sequence (30-357, looked up): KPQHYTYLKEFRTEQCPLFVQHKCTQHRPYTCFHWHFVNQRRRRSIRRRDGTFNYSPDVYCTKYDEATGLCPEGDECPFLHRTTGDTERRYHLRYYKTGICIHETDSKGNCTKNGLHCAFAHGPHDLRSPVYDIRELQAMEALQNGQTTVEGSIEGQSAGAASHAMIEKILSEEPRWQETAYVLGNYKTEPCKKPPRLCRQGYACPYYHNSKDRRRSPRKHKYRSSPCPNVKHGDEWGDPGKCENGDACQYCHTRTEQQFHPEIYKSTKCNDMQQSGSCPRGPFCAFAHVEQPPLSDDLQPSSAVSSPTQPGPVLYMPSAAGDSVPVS
Technique: RNA Bind-n-Seq
Molecule type: RNA
Sample: in vitro
Concentration: 100 nM
Setting: RNA with constant flanks, vertebrate orthologous sites, ends assumed
Relative to: input RNA pool
Direction: higher = stronger binding
Oligonucleotide | bound/input enrichment
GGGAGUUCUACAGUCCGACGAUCUGGGUUACUCCUAUUACUAUCAAGUAGCUGGAAUUGUGAAGGUCGGAGUAGUUAGCUCUUUAGCUUUUCUUCCUUAUUUUUUGUAUUCCUCUCAUGUGUAUAAAUUAUUGAUCAUGUUGCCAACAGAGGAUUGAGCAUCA | 1.36 ratio
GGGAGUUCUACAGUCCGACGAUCCACAUCCGGUGAUAUUUGGCCAGGCCUUUCAGCUUAUGAUAAUAGUCCUAGAUCACCCCAUAGUCCUUCACCUAUUGCUACACCACCUAGUCAGAGUUCAUCUUGCUCUGAUGCCCCUAUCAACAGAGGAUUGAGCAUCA | 1.26 ratio
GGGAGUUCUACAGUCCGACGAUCGCUCCGGCCCGGGGCAGGGCUGUGGAGCACACUUUGCGCGCUCCUGCAGUUUUCUUUGUUCUAGGGGUGGGGGUUGUGGCGCACACCGACGUGGAGGCGUAGCUUUAGUGGUUCAUUAUGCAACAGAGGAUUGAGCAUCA | 0.833 ratio
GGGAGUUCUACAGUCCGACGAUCACCUAAUGUCCACUGCUAAGCCAACAAUCCUAGAGCUCUGUGUGUGUGUAGUUUUGUAUAUAGUAAUGCCAACCUCGUUGCUGAAUGUUACAUCUGGAGGAGAAACGGGUUCGAGCCUGACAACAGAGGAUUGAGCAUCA | 0.786 ratio
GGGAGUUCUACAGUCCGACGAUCGUGUUGGUGCGGAGUGCUCUGUACCAGUGCUCAUCGUCCCUUCUUCAUACCAACUGUCCUAGUUACAGGAAUAUUUUUAAAAGUUUUACAUUGCUGUAUAUUCAAAGAUUUGUUUAAUAUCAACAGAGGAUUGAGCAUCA | 0.252 ratio
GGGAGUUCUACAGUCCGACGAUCUGUAUGUACAUUAUUCACAUUCCUCUCUGUUGUGUUUGGGGGGGGGGGGAAAAAGACUUUUUAGCCUUUUUUAAGGUUACUGAUUUAAUUUCAUGUUAUUUGGUUGCAUGAAGUUGCCCUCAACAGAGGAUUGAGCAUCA | 0.946 ratio
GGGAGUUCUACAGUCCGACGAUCCCCCGAUUUUAGAUGUGAUAUCUAGGCUCUCAUUCUAGUUUGUUUUUGUCUUUUCUUGUUUAGAUACCAAUCUUUUAAAUUCUUGCAUUUUAGUAAGAAAGCUACCUUUUUAUGGAUGUUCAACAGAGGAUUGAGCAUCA | 2.83 ratio
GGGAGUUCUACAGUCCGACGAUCUAUCUUUAGGAUGAAGCUCUUGCACCAGGUGUCACGGGUCUGGAAAACAGACGGCCUGACGAGUUGUUCUUACAAAUUACUGUCUGUGGAACACAAUCCUUUAUAUGUCAACAUCACAGUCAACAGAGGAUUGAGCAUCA | 0.214 ratio
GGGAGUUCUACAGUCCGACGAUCUGGCCUGUGGCUGUGUGUUCAAACACCCCUCCCACAGGACUCACUUUGUCCCAACAAUUCAGAUUGCCUAGAAAUACCUUUCUCUUACCUGUUUGUUAUUUAUCAAUUUUUCCCAGUAUUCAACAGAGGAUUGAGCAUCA | 0.479 ratio
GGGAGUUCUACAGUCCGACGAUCUGCAUUAUUUGACCAGAGUUGAGGUGACAGAGUUUGAAGAUAUCAAAUCAGGUUACAGAAUAGAUUUUUAUUUUGACGAGAAUCCAUACUUUGAAAAUAAAGUUCUCUCCAAAGAGUUUCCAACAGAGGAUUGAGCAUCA | 0.891 ratio
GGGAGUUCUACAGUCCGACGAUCUAGUUGGAAGAAUAAUAUAGGAGGUUGUGGUCAAAAAGUAGGAGUUGUUGGGGAGAGAAGUUAACAAAUAUCAAGAACCAGGUGGCCAAAGAAUGGAGCUGUAGAUAUUGAAAUUCAUGUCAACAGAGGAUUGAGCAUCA | 0.598 ratio

Study 4
Target: Interferon regulatory factor 5, full length, phosphomimetic (IRF5, Homo sapiens, UniProt Q13568-2, residues 1-514, S451D/S453D/S456D/S462D)
Technique: protein-binding microarray
Molecule type: double-stranded DNA, one strand shown
Sample: in vitro
Concentration: 940 nM top
Setting: 60-bp whole probe
Together with: salmon DNA 0.4 mg/ml
Relative to: random background probes
Direction: higher = stronger binding
All sequences stand within: GCCTAGCAC … GTCTTGATTCGCTTGACGCTGCTG
Oligonucleotide | fitted relative affinity
TTAGGTCTCCGACTGGGTTAGTGCTAG | -0.505 z-score
TTAGATTTCAGACTGTATTAGTGCTAG | 0.113 z-score
TTAGTTCTCAGTATCGATTAGTGCTAG | 5.88 z-score
GACGGACTGCTTTGCCTGACGTGCTAG | -0.691 z-score
TTAGGTACCGACTATCGGTTAGTGCTA | 0.265 z-score
TTAGGTCTCCTTTTCCTTTGGTGCTAG | 0.708 z-score
TCCCAAGTCTTGTTTTACAATGTGCTA | 0.427 z-score
TTCTTAATGCTTCTGGACCAGTGCTAG | -0.0451 z-score
TTAGATTCCAGTTGCGATTAGTGCTAG | 1.06 z-score
GACGGGCTCCTTCTCCTGACGTGCTAG | -0.123 z-score
TTAGATTTCAGTCTAGATTAGTGCTAG | 0.645 z-score
TTAGGTATCGGTTTCGGTTCGTGCTAG | 10.8 z-score
TCCCTTCAACAGTGCTGGCTGTGCTAG | 0.0226 z-score
GACGATCTCAGGTTCGAGACGTGCTAG | -0.0696 z-score
GAAGGACTGCTTTTCCTGACGTGCTAG | -0.406 z-score
TCACTTATCCTTCCCCTACTGTGCTAG | 1.45 z-score
TCATTTTTTTTTTCATCATTGTGCTAG | 2.16 z-score
AAGCAAAAATGATTGGTTGAGTGCTAG | 0.2 z-score
GACGGTTTCGGGACTGGCGACGTGCTA | 6.55 z-score
TTTAGAAAGATTAGGGGTGCGTGCTAG | -0.12 z-score
TTAGGGTTCCTACTGCTTTAGTGCTAG | 0.0283 z-score
ACAGCAAGAGCTCAACGGGGGTGCTAG | 0.106 z-score
ATAGGACTGCTTTTCCTTTAGTGCTAG | -0.0614 z-score
GACGGTTTCTACTTTCGGGACGTGCTA | 3.62 z-score
GGGGCTTGGGAGAGGCATCCGTGCTAG | -0.108 z-score

Study 5
Target: Histone acetyltransferase KAT6A, winged helix 1, GST fusion (KAT6A, Homo sapiens, UniProt Q92794, residues 1-85)
Technique: protein binding microarray
Molecule type: double-stranded DNA, one strand shown
Sample: in vitro
Concentration: not given
Setting: 8-mer, flanks averaged, mean of 2 arrays, mostly near background
Relative to: not given
Direction: higher = stronger binding
Target sequence (chain): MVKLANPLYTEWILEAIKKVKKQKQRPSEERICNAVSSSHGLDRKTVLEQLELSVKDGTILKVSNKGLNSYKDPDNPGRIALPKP
Oligonucleotide | E-score
CTCAATAC | -0.194
ACATGCAA | -0.191
CCACCTTC | -0.24
CCAAGCTC | -0.203
CACGCCTA | 0.121
AATCGCAG | -0.121
ATCGACAC | -0.0732
AGCGAAAA | -0.118
AAAACCGT | 0.0353
GTCGTGAA | -0.0107
CTCACTCA | -0.193
TACGTTCA | -0.152
ATGCGTCA | 0.0822
CTACGCCC | 0.17
CGAATAAC | 0.068
CGAAATAG | 0.0865
CTGTGCTC | -0.17
CCTCTGTC | -0.0635

Mixed results
Sequence | organism | assay | system | setting | how to read | endpoint | value
GSALKKLFTSTGL | Saccharomyces cerevisiae | binding, competitive growth deep sequencing | peptide, cyclin E1-Cln2 fusion strain | concentration not given, peptide library 1 | direction not given | growth enrichment score | 0.466

A few entries again (study 1):
Variant | relative binding score [%]
I33C | 1.58
F5Q | 7.6
A13C | 1.39
R111S | 5.59
T6Y | 30.2
T120N | 0.611
